Measured values gathered from unrelated publications.
A part holds a random share of what one study measured. “And” joins repeats or separate records; there may be more than shown.
UniProt P11802, sequence (whole entry, looked up): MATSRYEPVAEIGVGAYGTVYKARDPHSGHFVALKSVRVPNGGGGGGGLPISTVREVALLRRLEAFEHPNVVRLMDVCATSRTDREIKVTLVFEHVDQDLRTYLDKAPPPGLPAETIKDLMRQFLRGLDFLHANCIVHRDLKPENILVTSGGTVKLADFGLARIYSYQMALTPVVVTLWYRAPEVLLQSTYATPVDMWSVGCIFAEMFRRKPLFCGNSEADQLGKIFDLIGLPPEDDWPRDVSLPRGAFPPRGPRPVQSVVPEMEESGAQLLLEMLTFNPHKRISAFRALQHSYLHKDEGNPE
UniProt Q15831, sequence (whole entry, looked up): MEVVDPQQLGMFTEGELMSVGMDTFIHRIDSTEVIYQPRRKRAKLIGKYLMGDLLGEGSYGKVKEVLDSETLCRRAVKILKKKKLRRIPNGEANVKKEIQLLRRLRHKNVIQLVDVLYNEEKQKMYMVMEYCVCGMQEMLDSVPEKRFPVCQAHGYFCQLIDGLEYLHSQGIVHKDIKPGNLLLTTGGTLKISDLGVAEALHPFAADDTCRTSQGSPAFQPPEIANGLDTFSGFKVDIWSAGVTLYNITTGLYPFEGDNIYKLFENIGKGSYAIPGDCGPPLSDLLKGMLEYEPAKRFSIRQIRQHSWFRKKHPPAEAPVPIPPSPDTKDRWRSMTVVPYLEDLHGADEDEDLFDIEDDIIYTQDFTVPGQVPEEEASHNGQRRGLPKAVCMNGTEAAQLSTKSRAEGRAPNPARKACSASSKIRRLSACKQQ
UniProt Q8IU85, sequence (whole entry, looked up): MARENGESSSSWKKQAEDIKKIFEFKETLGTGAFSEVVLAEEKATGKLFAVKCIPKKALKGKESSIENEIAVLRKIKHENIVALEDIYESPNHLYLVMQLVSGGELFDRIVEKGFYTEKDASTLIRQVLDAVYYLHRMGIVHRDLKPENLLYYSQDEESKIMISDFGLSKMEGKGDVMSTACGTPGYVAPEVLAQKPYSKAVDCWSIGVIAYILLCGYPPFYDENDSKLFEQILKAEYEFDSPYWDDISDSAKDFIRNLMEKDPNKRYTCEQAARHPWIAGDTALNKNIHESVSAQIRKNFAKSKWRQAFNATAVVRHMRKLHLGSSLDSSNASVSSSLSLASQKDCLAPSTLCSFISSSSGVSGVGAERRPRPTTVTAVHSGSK

Series 1 — read-out: thermal unfolding; technique: differential scanning fluorimetry; concentration: 5.5 µM; reading: higher = more unfolded; measurement: SYPRO Orange fluorescence
Compound: C[C@@H]1CN(c2ccc(-c3cc(C(=O)NCCOCCOCCOCCOCCOCCOCCNC(=O)/C=C/c4[nH]cc(C(=O)N[C@@H](CC(N)=O)c5ccc(F)c(Cl)c5)c4-c4ccc(Cl)cc4F)ccc3F)cc2NC(=O)c2ccc(F)cc2C(F)(F)F)C[C@H](C)N1C
WDR5: WD repeat-containing protein 5 (WDR5, Homo sapiens, UniProt P61964)
DCAF1: DDB1- and CUL4-associated factor 1 (DCAF1, Homo sapiens, UniProt Q9Y4B6)
UniProt Q9Y4B6, sequence (whole entry, looked up): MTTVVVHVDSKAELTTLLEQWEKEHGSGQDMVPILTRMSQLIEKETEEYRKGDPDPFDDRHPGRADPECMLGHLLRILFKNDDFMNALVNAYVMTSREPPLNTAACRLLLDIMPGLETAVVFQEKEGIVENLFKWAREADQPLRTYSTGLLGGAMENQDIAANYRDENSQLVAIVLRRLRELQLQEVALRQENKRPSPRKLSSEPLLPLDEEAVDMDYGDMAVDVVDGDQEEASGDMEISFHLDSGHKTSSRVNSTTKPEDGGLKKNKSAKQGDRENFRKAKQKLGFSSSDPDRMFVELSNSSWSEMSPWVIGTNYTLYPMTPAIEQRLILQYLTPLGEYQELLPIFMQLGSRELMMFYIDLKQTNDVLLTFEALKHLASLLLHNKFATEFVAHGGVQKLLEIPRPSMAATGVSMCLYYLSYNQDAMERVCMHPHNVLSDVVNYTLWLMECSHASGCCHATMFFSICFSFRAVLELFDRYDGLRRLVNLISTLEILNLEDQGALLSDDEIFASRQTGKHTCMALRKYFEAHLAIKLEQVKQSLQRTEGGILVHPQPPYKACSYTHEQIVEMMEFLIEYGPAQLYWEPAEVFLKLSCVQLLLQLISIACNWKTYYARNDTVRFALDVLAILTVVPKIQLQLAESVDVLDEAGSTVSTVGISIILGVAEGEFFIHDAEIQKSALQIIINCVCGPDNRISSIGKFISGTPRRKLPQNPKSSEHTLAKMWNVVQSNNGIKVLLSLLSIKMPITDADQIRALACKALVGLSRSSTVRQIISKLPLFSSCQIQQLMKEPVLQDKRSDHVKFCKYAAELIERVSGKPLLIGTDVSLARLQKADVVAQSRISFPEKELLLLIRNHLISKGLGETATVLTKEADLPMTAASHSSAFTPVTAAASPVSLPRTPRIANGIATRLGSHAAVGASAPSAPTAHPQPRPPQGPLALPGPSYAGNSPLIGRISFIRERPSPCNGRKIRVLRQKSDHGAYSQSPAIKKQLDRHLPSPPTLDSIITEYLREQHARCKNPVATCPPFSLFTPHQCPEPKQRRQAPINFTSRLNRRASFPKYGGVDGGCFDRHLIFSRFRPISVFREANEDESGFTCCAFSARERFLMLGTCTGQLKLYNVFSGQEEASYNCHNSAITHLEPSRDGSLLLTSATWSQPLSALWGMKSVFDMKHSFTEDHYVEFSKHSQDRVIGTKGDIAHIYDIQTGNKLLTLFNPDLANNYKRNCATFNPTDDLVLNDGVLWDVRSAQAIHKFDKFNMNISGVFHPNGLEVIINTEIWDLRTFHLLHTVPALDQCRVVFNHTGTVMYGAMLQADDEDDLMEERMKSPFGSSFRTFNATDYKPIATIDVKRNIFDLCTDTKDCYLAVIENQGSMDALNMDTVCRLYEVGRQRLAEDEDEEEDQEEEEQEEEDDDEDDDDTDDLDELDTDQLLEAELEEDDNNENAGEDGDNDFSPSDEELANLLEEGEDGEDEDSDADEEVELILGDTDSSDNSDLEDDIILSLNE
WDR5; 61.61 °C: 15200 a.u.
DCAF1; 29.2 °C: 8180 a.u.
DCAF1; 87.41 °C: 34200 a.u.
WDR5; 92.61 °C: 51000 a.u.
DCAF1; 91.21 °C: 31500 a.u.
WDR5; 94.41 °C: 48900 a.u.
DCAF1; 70.01 °C: 48300 a.u.

Series 2 — concentration: 1 µM; measurement: remaining binding
Compound: CC[C@@]1(c2cccc(C(F)(F)F)c2)C2=C(Nc3n[nH]cc31)[C@H](F)C(C)(C)CC2=O (single isomer, unassigned)
STK11 (Homo sapiens, UniProt Q15831); binding, competition with immobilised ligand: 52%
Receptor-type tyrosine-protein kinase FLT3, autoinhibited (FLT3, Homo sapiens, UniProt P36888); binding, competition with immobilised ligand: 97%
Cyclin-dependent kinase 4, with cyclin D1 (CDK4, Homo sapiens, UniProt P11802); binding, competition with immobilised ligand: 90%
WNK3 (Homo sapiens, UniProt Q9BYP7); binding, competition with immobilised ligand: 100%
EGFR (Homo sapiens, UniProt P00533, G719S); binding, competition with immobilised ligand: 100%
Tyrosine-protein kinase ABL1, non-phosphorylated (ABL1, Homo sapiens, UniProt P00519, Q252H); kinase binding, KINOMEscan; relative to: DMSO control: 34%
COQ8A (Homo sapiens, UniProt Q8NI60); kinase binding, KINOMEscan; relative to: DMSO control: 100%
PIP5K1C (Homo sapiens, UniProt O60331); kinase binding, KINOMEscan; relative to: DMSO control: 60%
CDK4 (Homo sapiens, UniProt P11802); kinase binding, KINOMEscan; relative to: DMSO control: 79%
EIF2AK1 (Homo sapiens, UniProt Q9BQI3); kinase binding, KINOMEscan; relative to: DMSO control: 100%
CAMK1D (Homo sapiens, UniProt Q8IU85); kinase binding, KINOMEscan; relative to: DMSO control: 100%
NTRK1 (Homo sapiens, UniProt P04629); binding, competition with immobilised ligand: 88%
TSSK1B (Homo sapiens, UniProt Q9BXA7); kinase binding, KINOMEscan; relative to: DMSO control: 85%

Series 3 — read-out: enzyme activity; measurement: inhibition
Compound: NC/C(=C\F)COc1cc(Cn2c(=S)[nH]c(=O)c3[nH]ccc32)ccc1Cl
Target: Myeloperoxidase (MPO, Homo sapiens, UniProt P05164)
UniProt P05164, sequence (whole entry, looked up): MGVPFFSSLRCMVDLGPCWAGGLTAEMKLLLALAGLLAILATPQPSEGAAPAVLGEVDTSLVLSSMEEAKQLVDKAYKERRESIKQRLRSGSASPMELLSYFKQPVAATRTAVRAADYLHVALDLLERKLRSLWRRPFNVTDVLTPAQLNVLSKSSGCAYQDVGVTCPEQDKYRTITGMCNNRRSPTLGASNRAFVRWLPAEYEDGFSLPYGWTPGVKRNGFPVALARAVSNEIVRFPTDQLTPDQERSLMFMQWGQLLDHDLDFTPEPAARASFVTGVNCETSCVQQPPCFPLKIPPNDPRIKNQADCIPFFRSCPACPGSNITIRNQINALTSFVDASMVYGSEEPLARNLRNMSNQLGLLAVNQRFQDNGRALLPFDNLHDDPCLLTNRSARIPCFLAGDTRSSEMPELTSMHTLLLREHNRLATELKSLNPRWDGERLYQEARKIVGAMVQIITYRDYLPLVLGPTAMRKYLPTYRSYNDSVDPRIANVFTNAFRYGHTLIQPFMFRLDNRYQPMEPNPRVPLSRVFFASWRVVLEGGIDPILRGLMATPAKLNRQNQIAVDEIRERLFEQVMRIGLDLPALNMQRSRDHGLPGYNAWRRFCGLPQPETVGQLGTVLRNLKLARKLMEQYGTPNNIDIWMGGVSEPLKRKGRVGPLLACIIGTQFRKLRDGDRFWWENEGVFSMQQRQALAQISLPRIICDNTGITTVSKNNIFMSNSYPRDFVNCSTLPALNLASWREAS
0.3704 µM: 97.8%
inhibitor, fluorescence; 1.111 µM: 98.6%
inhibitor, fluorescence; 30 µM: 100%
inhibitor, fluorescence; 0.3704 µM: 98.3%
0.1235 µM: 96.6% and 96.5%
10 µM: 99.5% and 99.8%

Series 4 — read-out: enzyme activity; mode: inhibitor; technique: Ub-TR-FRET; matrix: HECT domain; concentration: 0.04572 µM; reading: higher = more chain formation; measurement: ubiquitin chain formation AUC
Target: E3 ubiquitin-protein ligase NEDD4, HECT domain (Homo sapiens, UniProt P46934)
Construct (P46934 938-1319, limits assumed): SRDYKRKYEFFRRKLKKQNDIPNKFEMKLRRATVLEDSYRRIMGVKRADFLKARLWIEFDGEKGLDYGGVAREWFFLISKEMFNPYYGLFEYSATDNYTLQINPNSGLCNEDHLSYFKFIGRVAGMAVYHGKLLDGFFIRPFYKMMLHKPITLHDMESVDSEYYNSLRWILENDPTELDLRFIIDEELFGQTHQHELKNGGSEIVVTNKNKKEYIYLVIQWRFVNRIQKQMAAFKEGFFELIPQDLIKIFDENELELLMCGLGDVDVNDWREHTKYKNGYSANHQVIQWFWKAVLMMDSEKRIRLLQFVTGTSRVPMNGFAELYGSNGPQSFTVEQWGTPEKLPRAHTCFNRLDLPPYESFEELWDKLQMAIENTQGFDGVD
Cl.NC(=O)/C=C/CNCCCN1c2ccccc2CCc2ccc(Cl)cc21: 141000 a.u. and 140000 a.u.
COC(=O)CCCNCCCN1c2ccccc2CCc2ccc(Cl)cc21.COC(=O)CCCNCCCN1c2ccccc2CCc2ccc(Cl)cc21.O=C(O)/C=C/C(=O)O: 133000 a.u. and 131000 a.u.
CONC(=O)/C=C/CNCCCCN1c2ccccc2CCc2ccc(Cl)cc21.O=C(O)/C=C\C(=O)O: 57200 a.u. and 38900 a.u. and 62900 a.u. and 37000 a.u. and 39700 a.u.
CN(C)C(=O)/C=C/CNCCCN1c2ccccc2CCc2ccc(Cl)cc21.Cl: 141000 a.u. and 140000 a.u.
CCOC(=O)/C=C/CNCCCCN1c2cc(Cl)ccc2CCc2cnn(C)c21.O=C(O)/C=C\C(=O)O: 51800 a.u. and 67200 a.u. and 54700 a.u. and 65300 a.u. and 67900 a.u. and 65000 a.u.
CNCCCN1c2ccccc2CCc2ccc(Cl)cc21: 147000 a.u.
CCOC(=O)/C=C/CNCCCCN1c2ccccc2COc2ccc(Cl)cc21.O=C(O)/C=C\C(=O)O: 91800 a.u. and 82600 a.u. and 90300 a.u.
CCOC(=O)/C=C/CN(CCCCN1c2ccccc2CCc2ccc(Cl)cc21)C(C)C.O=C(O)/C=C\C(=O)O: 84900 a.u. and 84600 a.u. and 84200 a.u. and 81100 a.u. and 85400 a.u. and 81700 a.u.
CCOC(=O)/C=C/CNCCCCN1c2cc(Cl)ccc2COc2ccccc21.O=C(O)/C=C\C(=O)O: 91100 a.u. and 85900 a.u. and 91500 a.u.

Series 5 — read-out: binding; technique: HTRF; measurement: inhibition
Structure (SMILES): Cc1ccc(O)c(C)c1-c1cnc2[nH]c(-c3cnc(N4CCC(CCN5CCN(c6cc7c(cc6F)c(N6CCC(=O)NC6=O)nn7C)CC5)CC4)nc3)cc2c1C#N
Target: Membrane-associated tyrosine- and threonine-specific cdc2-inhibitory kinase (PKMYT1, Homo sapiens, UniProt Q99640)
Residues (Q99640 1-499): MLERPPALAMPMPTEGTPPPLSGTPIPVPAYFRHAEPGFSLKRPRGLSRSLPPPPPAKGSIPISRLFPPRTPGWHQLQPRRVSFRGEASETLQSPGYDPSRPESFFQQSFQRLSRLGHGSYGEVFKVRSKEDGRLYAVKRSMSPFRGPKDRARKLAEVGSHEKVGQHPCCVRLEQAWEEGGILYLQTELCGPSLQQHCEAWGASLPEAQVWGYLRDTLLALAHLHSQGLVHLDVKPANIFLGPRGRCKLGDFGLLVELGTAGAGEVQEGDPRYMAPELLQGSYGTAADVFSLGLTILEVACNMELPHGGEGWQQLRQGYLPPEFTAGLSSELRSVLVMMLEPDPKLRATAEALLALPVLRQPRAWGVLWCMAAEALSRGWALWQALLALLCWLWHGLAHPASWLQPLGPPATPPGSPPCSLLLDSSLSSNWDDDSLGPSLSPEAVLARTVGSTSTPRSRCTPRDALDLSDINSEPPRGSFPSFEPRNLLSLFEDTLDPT
333.33 nM: 99.3% and 99.4%
0.051 nM: -2.66% and -3.61%
0.15 nM: -0.989% and -0.689%

Series 6 — read-out: kinase activity; mode: inhibitor; technique: ADP-Glo; concentration: 0.6667 µM; measurement: inhibition
Target: Cyclin-dependent kinase 12, with cyclin K (CDK12, Homo sapiens, UniProt Q9NYV4)
UniProt Q9NYV4, sequence (whole entry, looked up): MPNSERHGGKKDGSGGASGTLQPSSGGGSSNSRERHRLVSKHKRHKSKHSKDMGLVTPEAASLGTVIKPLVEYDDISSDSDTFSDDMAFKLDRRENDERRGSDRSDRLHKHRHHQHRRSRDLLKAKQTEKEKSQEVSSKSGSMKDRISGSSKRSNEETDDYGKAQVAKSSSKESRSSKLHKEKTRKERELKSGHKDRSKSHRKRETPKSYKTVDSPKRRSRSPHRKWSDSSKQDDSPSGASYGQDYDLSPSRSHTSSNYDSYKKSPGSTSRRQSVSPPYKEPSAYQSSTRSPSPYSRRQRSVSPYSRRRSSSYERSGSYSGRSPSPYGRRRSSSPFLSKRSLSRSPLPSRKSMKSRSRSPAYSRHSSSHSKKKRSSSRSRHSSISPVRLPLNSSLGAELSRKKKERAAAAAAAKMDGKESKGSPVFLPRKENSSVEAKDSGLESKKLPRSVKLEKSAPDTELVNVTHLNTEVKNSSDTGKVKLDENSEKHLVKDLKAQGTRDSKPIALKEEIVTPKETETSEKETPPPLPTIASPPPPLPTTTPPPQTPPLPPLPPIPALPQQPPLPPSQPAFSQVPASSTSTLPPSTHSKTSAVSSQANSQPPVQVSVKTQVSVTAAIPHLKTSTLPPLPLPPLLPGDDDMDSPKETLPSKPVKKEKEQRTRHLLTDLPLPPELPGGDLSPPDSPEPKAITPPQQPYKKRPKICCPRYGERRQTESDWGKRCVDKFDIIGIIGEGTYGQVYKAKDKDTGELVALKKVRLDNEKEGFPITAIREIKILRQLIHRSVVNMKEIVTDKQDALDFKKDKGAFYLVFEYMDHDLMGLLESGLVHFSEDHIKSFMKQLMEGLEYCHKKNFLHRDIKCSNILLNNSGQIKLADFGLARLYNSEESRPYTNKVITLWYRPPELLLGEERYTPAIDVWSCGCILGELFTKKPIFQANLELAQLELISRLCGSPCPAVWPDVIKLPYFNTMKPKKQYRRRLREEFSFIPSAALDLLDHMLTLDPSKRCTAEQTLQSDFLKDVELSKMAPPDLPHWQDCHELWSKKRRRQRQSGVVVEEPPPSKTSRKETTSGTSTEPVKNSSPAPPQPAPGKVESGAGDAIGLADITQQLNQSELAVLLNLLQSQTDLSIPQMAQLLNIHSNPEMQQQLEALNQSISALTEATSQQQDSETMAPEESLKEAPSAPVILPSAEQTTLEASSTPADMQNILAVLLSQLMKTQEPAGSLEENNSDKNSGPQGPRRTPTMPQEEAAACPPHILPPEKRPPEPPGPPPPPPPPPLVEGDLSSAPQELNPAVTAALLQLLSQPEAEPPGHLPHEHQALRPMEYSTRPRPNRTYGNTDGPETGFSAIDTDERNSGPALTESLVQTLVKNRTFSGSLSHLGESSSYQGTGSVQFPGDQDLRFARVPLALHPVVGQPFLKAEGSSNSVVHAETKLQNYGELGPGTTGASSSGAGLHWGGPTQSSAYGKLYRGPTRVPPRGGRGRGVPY
CCn1cnc2c(NCc3nc4cc(Cl)c(Cl)cc4[nH]3)nc(N3CCN(C(C)=O)CC3)nc21: 84.3%
CCCCOc1nc(NCc2nc3cc(Cl)c(Cl)cc3[nH]2)c2ncn(CC)c2n1: 58.2%
Cn1cc(-n2cnc3c(NCc4nc5cc(Cl)c(Cl)cc5[nH]4)nc(N4CCNCC4)nc32)cn1: 51.2%
CCN(CC)CC(=O)N1CCN(c2nc(NCc3nc4cc(Cl)c(Cl)cc4[nH]3)c3ncn(CC)c3n2)CC1: 67.3%
CCn1cnc2c(NCc3nc4cc(F)c(F)cc4[nH]3)nc(N3CCn4ncnc4C3)nc21: 78%
CC(=O)N1CCN(c2nc(NCc3nc4cc(Cl)c(Cl)cc4[nH]3)c3ncn(C(C)C)c3n2)CC1: 3.1%
CC(=O)N1CCN(c2nc(NCc3nc4cc(Cl)c(Cl)cc4[nH]3)c3ncn(-c4cnn(C)c4)c3n2)CC1: 78.3%
CCn1cnc2c(NCc3nc4ccc(F)c(F)c4[nH]3)nc(N3CCn4ncnc4C3)nc21: 77.9%
CCn1cnc2c(NCc3nc4cc(Cl)c(Cl)cc4[nH]3)nc(N3CCN(Cc4ccncc4)CC3)nc21: 85.4%
CCn1cnc2c(NCc3nc4cc(Cl)c(Cl)cc4[nH]3)nc(N3CCN(C(=O)c4ccccn4)CC3)nc21: 77.6%

Mixed results
O=C(Nc1ccccc1)Nc1cccc(Oc2ccc3nccn3n2)c1  remaining signal (Focal adhesion kinase 1 (PTK2, Homo sapiens, UniProt Q05397); cell-free assay; 1 µM): 100%

Excerpt of the above (series 6):
Cn1cc(-n2cnc3c(NCc4nc5cc(Cl)c(Cl)cc5[nH]4)nc(N4CCNCC4)nc32)cn1: 51.2%
CCN(CC)CC(=O)N1CCN(c2nc(NCc3nc4cc(Cl)c(Cl)cc4[nH]3)c3ncn(CC)c3n2)CC1: 67.3%
CCn1cnc2c(NCc3nc4cc(F)c(F)cc4[nH]3)nc(N3CCn4ncnc4C3)nc21: 78%
CC(=O)N1CCN(c2nc(NCc3nc4cc(Cl)c(Cl)cc4[nH]3)c3ncn(C(C)C)c3n2)CC1: 3.1%
CC(=O)N1CCN(c2nc(NCc3nc4cc(Cl)c(Cl)cc4[nH]3)c3ncn(-c4cnn(C)c4)c3n2)CC1: 78.3%
CCn1cnc2c(NCc3nc4ccc(F)c(F)c4[nH]3)nc(N3CCn4ncnc4C3)nc21: 77.9%
CCn1cnc2c(NCc3nc4cc(Cl)c(Cl)cc4[nH]3)nc(N3CCN(Cc4ccncc4)CC3)nc21: 85.4%
CCn1cnc2c(NCc3nc4cc(Cl)c(Cl)cc4[nH]3)nc(N3CCN(C(=O)c4ccccn4)CC3)nc21: 77.6%
